{"data": "Measured values gathered from unrelated publications", "note": "A part holds a random share of what one study measured.", "chain of UniProt P08913 (whole entry, looked up)": "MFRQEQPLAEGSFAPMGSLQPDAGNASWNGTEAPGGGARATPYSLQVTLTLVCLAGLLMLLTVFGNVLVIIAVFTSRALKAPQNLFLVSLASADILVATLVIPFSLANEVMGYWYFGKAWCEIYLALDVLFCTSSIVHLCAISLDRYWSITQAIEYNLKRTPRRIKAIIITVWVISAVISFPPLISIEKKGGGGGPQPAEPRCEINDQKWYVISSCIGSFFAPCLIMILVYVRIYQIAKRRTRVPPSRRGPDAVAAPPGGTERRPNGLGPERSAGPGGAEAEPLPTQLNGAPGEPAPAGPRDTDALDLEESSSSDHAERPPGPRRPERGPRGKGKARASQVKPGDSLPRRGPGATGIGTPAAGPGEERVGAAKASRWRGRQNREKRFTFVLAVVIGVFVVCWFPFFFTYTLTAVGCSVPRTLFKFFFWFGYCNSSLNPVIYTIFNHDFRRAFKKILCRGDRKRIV"}
{"data": "Block 1", "target": "Interferon regulatory factor 3, full length, phosphomimetic (IRF3, Homo sapiens, UniProt Q14653, residues 1-427, S386D/S396D/S398D/S402D/T404D/S405D)", "method": "protein-binding microarray", "molecule type": "double-stranded DNA, one strand shown", "medium": "in vitro", "tested at": "2540 nM top", "setting": "60-bp whole probe", "added": "salmon DNA 0.4 mg/ml", "reference": "random background probes", "direction": "higher = stronger binding", "shared flanks, not repeated": "GCCTAGCAC … GTCTTGATTCGCTTGACGCTGCTG", "Residues (chain)": "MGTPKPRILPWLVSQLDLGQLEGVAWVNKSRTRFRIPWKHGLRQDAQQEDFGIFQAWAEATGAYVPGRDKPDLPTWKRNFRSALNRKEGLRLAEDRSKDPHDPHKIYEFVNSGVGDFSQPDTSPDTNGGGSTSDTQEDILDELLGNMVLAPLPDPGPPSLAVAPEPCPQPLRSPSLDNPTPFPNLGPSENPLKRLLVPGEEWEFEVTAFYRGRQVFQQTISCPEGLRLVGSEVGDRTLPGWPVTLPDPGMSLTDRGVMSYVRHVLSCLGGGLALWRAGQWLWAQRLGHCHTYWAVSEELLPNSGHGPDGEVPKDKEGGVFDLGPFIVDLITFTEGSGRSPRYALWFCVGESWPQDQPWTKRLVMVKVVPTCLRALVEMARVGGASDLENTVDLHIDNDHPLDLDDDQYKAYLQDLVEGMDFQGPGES"}
{"Sequence": "TTAAGACTGCTTATCCTTTAGTGCTAG", "fitted relative affinity [z-score]": -0.113}
{"Sequence": "CTTTTATTTTTTTTATTTATGTGCTAG", "fitted relative affinity [z-score]": 4.37}
{"Sequence": "GTATGACTCTGCCTCTAACTGTGCTAG", "fitted relative affinity [z-score]": -0.51}
{"Sequence": "GACTATTTCGGGTTTCGAGACGTGCTA", "fitted relative affinity [z-score]": 2.3}
{"Sequence": "TTTGGTATCGACACTGGGTTAGTGCTA", "fitted relative affinity [z-score]": 0.539}
{"Sequence": "CTGCAGCCCACTCCTGAACAGTGCTAG", "fitted relative affinity [z-score]": -0.56}
{"Sequence": "GACGAACTGAGTTGCGAGACGTGCTAG", "fitted relative affinity [z-score]": 0.256}
{"Sequence": "GGCGATCTCAGTATCGAGACGTGCTAG", "fitted relative affinity [z-score]": 0.48}
{"data": "Block 2", "target": "Signal transducer and activator of transcription 1-alpha/beta, full length (STAT1, Homo sapiens, UniProt P42224, residues 1-750)", "method": "protein-binding microarray", "molecule type": "hairpin DNA", "medium": "in vitro", "tested at": "not given", "setting": "whole hairpin DNA, median over replicate spots", "reference": "not given", "direction": "higher = stronger binding", "shared flanks, not repeated": "GAGGCC … GGCCTCACACTCTTTCCCTACACG", "chain of UniProt P42224 (whole entry, looked up)": "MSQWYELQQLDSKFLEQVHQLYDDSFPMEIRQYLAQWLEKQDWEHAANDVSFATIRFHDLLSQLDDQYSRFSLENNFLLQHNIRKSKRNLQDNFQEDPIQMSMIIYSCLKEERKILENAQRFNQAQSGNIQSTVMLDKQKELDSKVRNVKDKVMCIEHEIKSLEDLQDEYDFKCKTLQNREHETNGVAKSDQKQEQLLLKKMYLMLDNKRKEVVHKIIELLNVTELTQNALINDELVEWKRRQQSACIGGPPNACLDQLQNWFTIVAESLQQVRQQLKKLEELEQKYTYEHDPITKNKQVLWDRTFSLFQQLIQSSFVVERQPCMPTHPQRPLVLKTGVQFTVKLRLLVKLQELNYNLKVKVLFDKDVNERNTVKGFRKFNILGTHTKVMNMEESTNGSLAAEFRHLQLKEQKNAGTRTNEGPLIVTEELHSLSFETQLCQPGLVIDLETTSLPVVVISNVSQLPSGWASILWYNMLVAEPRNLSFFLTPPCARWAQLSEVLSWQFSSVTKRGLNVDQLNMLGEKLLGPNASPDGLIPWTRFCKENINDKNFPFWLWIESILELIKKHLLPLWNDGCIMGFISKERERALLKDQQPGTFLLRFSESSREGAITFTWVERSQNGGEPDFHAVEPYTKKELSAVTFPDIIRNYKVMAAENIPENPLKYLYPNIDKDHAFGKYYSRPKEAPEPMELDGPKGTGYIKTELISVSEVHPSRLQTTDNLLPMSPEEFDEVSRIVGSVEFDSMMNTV"}
{"Sequence": "TTTCCCGGATGCCTCCTGGCATCCGGGAAA", "median fluorescence [a.u.]": 1490}
{"Sequence": "TTCTCCGGAAGCCTCCTGGCTTCCGGAGAA", "median fluorescence [a.u.]": 1060}
{"Sequence": "TTTCCCGGCGGCCTCCTGGCCGCCGGGAAA", "median fluorescence [a.u.]": 920}
{"Sequence": "CGTCCCGGAAGCCTCCTGGCTTCCGGGACG (5mC at 7)", "median fluorescence [a.u.]": 1340}
{"Sequence": "TTTCCCGCAAGCCTCCTGGCTTGCGGGAAA", "median fluorescence [a.u.]": 1170}
{"Sequence": "TTTCCGGGAAGCCTCCTGGCTTCCCGGAAA (5mC at 11)", "median fluorescence [a.u.]": 11100}
{"Sequence": "TTTCCCGCTAGCCTCCTGGCTAGCGGGAAA", "median fluorescence [a.u.]": 990}
{"Sequence": "TTTCCCAGAAGCCTCCTGGCTTCTGGGAAA", "median fluorescence [a.u.]": 3500}
{"data": "Block 3", "target": "RNA binding protein fox-1 homolog 2, RRM domain, GST-SBP tag (RBFOX2, Homo sapiens, UniProt O43251-10, residues 100-194)", "method": "RNA Bind-n-Seq", "molecule type": "RNA", "medium": "in vitro", "tested at": "365 nM", "setting": "natural RNA segment, single round, ends assumed", "reference": "no-protein control", "direction": "higher = stronger binding", "shared flanks, not repeated": "GGGAGUUCUACAGUCCGACGAUC … UGGAAUUCUCGGGUGCCAA", "Construct (chain)": "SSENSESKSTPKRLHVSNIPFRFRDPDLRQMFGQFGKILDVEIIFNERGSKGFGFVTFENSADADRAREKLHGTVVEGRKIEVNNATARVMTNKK"}
{"Sequence": "CGUAUUCCGUUUUCUUCCUGCAUGAUCCCUGGGCCCUCCCGCAGGCUGAGCAAGUCUGUAAACUGAUUCUGGGAGAAACCAAGCUGCUGGCCAUAGGGUGUCCUUGGGUA", "RBNS enrichment (R)": 2.45}
{"Sequence": "AAGGAAAAUUCUCAGUGUGAUAUACAGAUAUAUUUAAUUGUGUCAUAUUAAACCUUCUGAUUUCAUAUUUGAUGGUCUUUAUUUGAGAAAGUGAGAGCAGUUUCGACCCG", "RBNS enrichment (R)": 0.281}
{"Sequence": "CUCAGAACCUGACAGGUAUGUUCAAAACUGUCAGUCUGUUUGUGCCUUAAAAGGGUGAGAAGGGCGCGUAGAUAGUUACAGAGUCUCAGCUGCUGACGUUCUGAGCCAGG", "RBNS enrichment (R)": 0.854}
{"Sequence": "CACAGAAGACAGAAGACAGGCAUCUUUGUUUCCACACAAUCAUAUUUUCUAUUCCUAACAGCUUCCCGUGGGAAAAGUAAGCUGUUGAUCUCUUUGGCAAUUGUUCUCUG", "RBNS enrichment (R)": 1.2}
{"Sequence": "GGAUUGAUGACCAGGGCCCUUCCUUUCCUCUCCAGGGUCUCAAGUUGCCCCUGUCACUGGGGGAACAGGGGCCUGGCUGUAACCGCCCCUGUCCUUUUCCCCUGGCCAGC", "RBNS enrichment (R)": 0.356}
{"Sequence": "CAUUCCUCUUACUGGGGCCUGGGGCUCUAGCCCAAGGCUCAGAGGAGCCAAUAAACCUGUAAAUGAAUAGACGCAUGUUUGAGUGAGUAAAUGGGCCUUUAAAGGGGAGC", "RBNS enrichment (R)": 2.69}
{"Sequence": "AACCAACUAAAAGAGAAGGAGGUCUUCAUGUUGAUAUUUUGCUUGGUUUUAUUUUACUGAUUUUAAAAGGUAUAUAGAAAAAUGUAGGCCUUUAAAAAGAAACAGCAUGU", "RBNS enrichment (R)": 1.75}
{"Sequence": "AUGGACAGACCCAGGUGAGGAGAGGCCUGGGGAUUGGGGAAGCUGUCAUCUCAGUGUUAAUAAUCAACUUGCUUCUAACACACUGGCUUAUCAGGGGAGGUCAUCCAGUC", "RBNS enrichment (R)": 1.08}
{"data": "Other studies, line by line"}
{"Compound": "CCOCCn1cc(C(=O)Nc2ccc(-n3nc(-c4cccnc4)cc3C(F)(F)F)cn2)ccc1=O", "target": "Alpha-2A adrenergic receptor (ADRA2A, Homo sapiens, UniProt P08913)", "effect on": "binding", "method": "radioligand binding", "tested at": "10 µM", "measurement": "inhibition", "value": "-1.74%"}
